Assay results gathered from unrelated publications.
Values joined by “and” are separate records of one study, mostly repeats; a detail may differ. ± marks the error that the study gave.

SMILES	target or system	test	system	conditions	how to read	measurement	value
O=[N+]([O-])[O-].O=c1c(C=NN=C([S-])Nc2ccccc2)coc2ccccc12.[Cu+2].c1ccc(-c2ccccn2)nc1	–	oxidative DNA cleavage	supercoiled pUC19 DNA	100 µM, 30 min, together with: ascorbic acid 50 µM, DNA 40 µM	–	supercoiled DNA form	80%
COc1ccc(C(=O)CCc2cc(C(CCc3ccc(O)cc3OC)c3ccc(O)cc3)c(O)cc2OC)cc1 (racemic)	–	–	human blood	0.3 µM, together with: A23187	–	LTB4 level	2250 ± 908 pg/mL
COc1ccccc1-c1ccncc1C(=O)Nc1nnc(OCc2ccc(Cl)cc2)s1	–	immunofluorescence	MEFs, Mus musculus	10 µM, 24 h pretreatment, 0 h after irradiation, together with: ionising radiation 2 Gy	–	RAD51 foci-positive nuclei	9.36% and 6.86% and 2.46%
CN1CCC[C@]1(C)/C=C/S(=O)(=O)NC(=O)Nc1c2c(cc3c1CCC3)CCC2	–	–	human, whole blood ex vivo	250 mg single dose, 3 h, single ascending dose, together with: LPS and ATP	–	IL-1β inhibition	99.2%
CC1Cc2ccccc2N1C(=O)CN1CCN(Cc2ccccc2)CC1 (centres unmarked)	–	open field test	PC7-WT mice	1 mg/kg	relative to: vehicle	locomotion	increased
COc1c(Cl)cccc1Nc1c(-c2ccncc2C#C[C@@]2(C)CCCN2C(=O)/C=C/CN(C)C)[nH]c2c1C(=O)NCC2	–	–	CUTO14 xenograft, EGFR ASV, female NSG mice	50 mg/kg once daily, 21 days, regression if TGI above 100 %	–	tumour regression	81%
CCCCCCCCCCCCCCCC(=O)OCC(CSC[C@H](N)C(=O)N[C@@H](CO)C(=O)N[C@@H](CCCCN)C(=O)N[C@@H](CCCCN)C(=O)N[C@@H](CCCCN)C(=O)N[C@@H](CCCCN)C(=O)NCCCCCC(=O)N[C@@H](CCCCN)C(=O)N[C@@H](CC(C)C)C(=O)N[C@H](C(=O)N[C@@H](Cc1ccccc1)C(=O)N[C@@H](Cc1ccccc1)C(=O)N[C@@H](Cc1ccc2ccccc2c1)C(=O)O)C(C)C)OC(=O)CCCCCCCCCCCCCCC (some centres unmarked)	–	–	APP/PS1 transgenic mouse, cortex	local cortical injection, dose not given, unit not given	relative to: injected over adjacent side	Iba1 level	2.91 and 2.48 and 2.44 and 2.49 and 2.31 and 2.52 and 3.31 and 2.95
Cc1ncsc1-c1ccc(C(C)NC(=O)C2CC(O)CN2C(=O)C(NC(=O)CCCCCCCCCCN2CCCC(Nc3ncc(Cl)c(Nc4ccccc4S(=O)(=O)C(C)C)n3)C2)C(C)(C)C)cc1 (centres unmarked)	22Rv1	RNA-seq, refers to: MAVS mRNA	–	concentration not given	relative to: DMSO	log2 fold change	-1.28
COCC1CN(C2CCN(c3cc(OC)c(Nc4ncc(Br)c(Nc5ccc6c(c5P(C)(C)=O)OCCO6)n4)cc3C)CC2)C1	–	RECIST 1.1	advanced EGFR-mutant NSCLC patients	60 mg once daily	–	partial response	0%
O=S(=O)(NCc1ccncc1)c1ccc(C2CCCCC2)cc1	–	immunohistochemistry	5XFAD mice male 1-year-old, hippocampus	ip, 0.3 mg/kg daily, 6 wk	relative to: vehicle	β-amyloid accumulation reduction	~37%
COc1ccc(NC(=O)c2ccc3[nH]c(-c4ccc(N(C)C)cc4)nc3c2)cn1	–	micro-CT	mice, spontaneous lung tumour model	intraperitoneal, 25 mg/kg 5 times per week, 10 weeks, sum of nodule volumes	–	tumour volume	25.2 mm3 and 0.35 mm3 and 1.1 mm3 and 2.28 mm3 and 1.96 mm3 and 5.47 mm3 and 1.33 mm3
CC(=O)[O-].O.[Cu+2].[O-]c1ccc(Br)cc1C=NCCN1CCOCC1	–	FRAP	–	80 µM	–	ferric reducing power	21.6%
NC[C@@H](C(=O)Nc1ccc(-c2cn[nH]c2)cc1)c1ccccc1	–	tonometry	NZW rabbit, magnetic bead-induced ocular hypertension	ocular, 0.03%, 8 h	–	IOP	33.7 mmHg
O=[N][Fe]1([N]=O)[S](CCO)[Fe]([N]=O)([N]=O)[S]1CCO	–	–	aged C57BL/6JNarl mice, Western diet, serum	oral, 2.65 mg/kg daily, 16 weeks	–	serum triglycerides	73 ± 13.5 mg/dL
COCCOCCOCCNC(=O)Cc1cc(CC(=O)N[C@H]2C[C@H]3C(=O)Nc4cc(OCCOCCOCCOC)cc(n4)C(=O)N4CCC[C@H]4C(=O)Nc4cc(OCCOCCOCCOC)cc(n4)C(=O)N4CCC[C@H]4C(=O)Nc4cc(OCCOCCOCCOC)cc(n4)C(=O)N3C2)cc(CC(=O)N[C@H]2C[C@H]3C(=O)Nc4cc(OCCOCCOCCOC)cc(n4)C(=O)N4CCC[C@H]4C(=O)Nc4cc(OCCOCCOCCOC)cc(n4)C(=O)N4CCC[C@H]4C(=O)Nc4cc(OCCOCCOCCOC)cc(n4)C(=O)N3C2)c1	–	anion binding, ITC	water/methanol 70 vol% (84.0 mol%)	298 K, together with: sodium sulfate	–	ΔH	-2.1 ± 0.0239 kcal/mol
COc1cc(O)ccc1CCC(c1ccc(O)cc1)c1cc2c(c(C)c1O)OC(c1ccc(O)cc1)CC2 (mixture of isomers)	–	–	human blood	30 µM, together with: A23187	–	LTB4 level	13 ± 13 pg/mL
CCCCCc1ccc(S(=O)(=O)N2CC2C(=O)OC)cc1 (centres unmarked)	–	–	mouse, Lewis lung carcinoma	intraperitoneal, 15 mg/kg, 16 doses, day 11	–	tumour volume	313 mm3
Fc1cccc(-n2cc(-c3ccccc3)nc2NCc2ccc(C(F)(F)F)c(F)c2)c1	–	DPPH radical scavenging	methanol	first order kinetics	–	rate constant	0.425 ± 0.0375 s⁻¹
COc1cc2c(NC3CCN(C(C)C)CC3)cc(N3CCOCC3)nc2cc1OCCCN1CCCC1	–	TMT proteomics, refers to: NPTXR	5xFAD mice, hippocampus	dose not given	relative to: wild-type mice	log2 fold change	0.0867
COC1CN([C@H]2CC[C@H]([C@@]3(C)Oc4c(Cl)cc(C(=O)NCc5c(SC)cc(C)[nH]c5=O)c(C)c4O3)CC2)C1	–	RNA-seq, refers to: LAMA5 mouse homolog	mouse, HT-1376 xenograft, whole blood	dose not given	relative to: vehicle	log2 fold change	0.423

Some of these lines once more:
SMILES	target or system	test	system	conditions	how to read	measurement	value
O=[N][Fe]1([N]=O)[S](CCO)[Fe]([N]=O)([N]=O)[S]1CCO	–	–	aged C57BL/6JNarl mice, Western diet, serum	oral, 2.65 mg/kg daily, 16 weeks	–	serum triglycerides	73 ± 13.5 mg/dL
